Measured values from different studies.
± marks the error that the study gave. ≈ marks a conversion by molar mass, not a printed value.
PSMB6: Proteasome subunit beta type-6 (PSMB6, Homo sapiens, UniProt P28072)
OPRK1: Kappa-type opioid receptor (OPRK1, Homo sapiens, UniProt P41145)
ACHE: Acetylcholinesterase (ACHE, Homo sapiens, UniProt P22303)

The chains behind the UniProt entries cited, without tags or fusion partners. Residues count along the entry.
UniProt P41145, whole entry: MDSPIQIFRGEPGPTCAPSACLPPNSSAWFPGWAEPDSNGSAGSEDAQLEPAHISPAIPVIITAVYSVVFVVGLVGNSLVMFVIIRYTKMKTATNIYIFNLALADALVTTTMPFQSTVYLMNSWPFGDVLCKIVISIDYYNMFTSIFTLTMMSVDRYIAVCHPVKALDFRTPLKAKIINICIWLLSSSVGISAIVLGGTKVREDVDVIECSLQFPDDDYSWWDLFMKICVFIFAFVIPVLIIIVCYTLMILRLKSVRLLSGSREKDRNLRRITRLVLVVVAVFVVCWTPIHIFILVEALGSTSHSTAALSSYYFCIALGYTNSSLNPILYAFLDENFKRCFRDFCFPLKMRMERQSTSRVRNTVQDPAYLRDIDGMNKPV
UniProt P0A0C1, whole entry: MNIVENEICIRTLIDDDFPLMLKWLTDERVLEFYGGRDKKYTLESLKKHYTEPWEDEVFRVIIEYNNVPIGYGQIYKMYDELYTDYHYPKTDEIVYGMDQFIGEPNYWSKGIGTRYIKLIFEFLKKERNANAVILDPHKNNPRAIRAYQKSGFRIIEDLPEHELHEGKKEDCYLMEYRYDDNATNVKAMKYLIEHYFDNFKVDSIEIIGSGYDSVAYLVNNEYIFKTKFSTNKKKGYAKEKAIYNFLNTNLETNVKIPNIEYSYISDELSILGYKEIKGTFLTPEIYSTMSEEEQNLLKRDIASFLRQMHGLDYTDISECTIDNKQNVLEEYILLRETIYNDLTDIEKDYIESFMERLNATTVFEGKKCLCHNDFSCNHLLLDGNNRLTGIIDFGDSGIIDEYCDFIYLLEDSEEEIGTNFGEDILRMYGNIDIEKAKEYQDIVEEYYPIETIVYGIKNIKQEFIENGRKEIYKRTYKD
UniProt O43175, whole entry: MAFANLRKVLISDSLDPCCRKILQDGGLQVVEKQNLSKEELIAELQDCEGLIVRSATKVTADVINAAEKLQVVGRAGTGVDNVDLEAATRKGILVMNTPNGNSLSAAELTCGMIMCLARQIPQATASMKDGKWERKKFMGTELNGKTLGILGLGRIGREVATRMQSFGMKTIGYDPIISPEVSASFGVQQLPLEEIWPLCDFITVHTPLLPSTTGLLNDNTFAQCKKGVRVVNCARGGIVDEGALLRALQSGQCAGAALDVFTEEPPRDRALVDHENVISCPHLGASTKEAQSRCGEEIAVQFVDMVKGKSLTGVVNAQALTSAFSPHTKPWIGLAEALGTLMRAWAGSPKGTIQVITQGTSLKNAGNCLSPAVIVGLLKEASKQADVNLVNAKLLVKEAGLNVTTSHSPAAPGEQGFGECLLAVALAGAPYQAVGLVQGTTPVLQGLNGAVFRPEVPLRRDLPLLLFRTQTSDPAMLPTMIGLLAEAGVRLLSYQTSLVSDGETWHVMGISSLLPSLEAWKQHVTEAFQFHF
UniProt P97612, 30-579 limits assumed: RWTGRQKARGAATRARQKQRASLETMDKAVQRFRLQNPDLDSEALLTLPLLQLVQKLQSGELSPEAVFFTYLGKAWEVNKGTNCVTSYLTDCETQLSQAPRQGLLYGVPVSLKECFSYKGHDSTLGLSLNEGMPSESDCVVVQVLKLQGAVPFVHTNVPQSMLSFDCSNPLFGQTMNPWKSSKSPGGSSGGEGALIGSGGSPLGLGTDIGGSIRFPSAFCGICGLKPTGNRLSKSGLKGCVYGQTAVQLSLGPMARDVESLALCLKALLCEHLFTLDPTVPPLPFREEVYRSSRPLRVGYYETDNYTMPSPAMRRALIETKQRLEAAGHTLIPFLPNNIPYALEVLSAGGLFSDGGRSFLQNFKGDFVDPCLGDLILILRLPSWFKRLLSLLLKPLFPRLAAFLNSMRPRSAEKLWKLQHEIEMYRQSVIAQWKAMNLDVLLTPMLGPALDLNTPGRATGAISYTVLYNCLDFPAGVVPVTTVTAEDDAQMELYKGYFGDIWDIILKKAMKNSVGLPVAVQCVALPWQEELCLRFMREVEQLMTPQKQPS
UniProt Q00959, whole entry, looked up: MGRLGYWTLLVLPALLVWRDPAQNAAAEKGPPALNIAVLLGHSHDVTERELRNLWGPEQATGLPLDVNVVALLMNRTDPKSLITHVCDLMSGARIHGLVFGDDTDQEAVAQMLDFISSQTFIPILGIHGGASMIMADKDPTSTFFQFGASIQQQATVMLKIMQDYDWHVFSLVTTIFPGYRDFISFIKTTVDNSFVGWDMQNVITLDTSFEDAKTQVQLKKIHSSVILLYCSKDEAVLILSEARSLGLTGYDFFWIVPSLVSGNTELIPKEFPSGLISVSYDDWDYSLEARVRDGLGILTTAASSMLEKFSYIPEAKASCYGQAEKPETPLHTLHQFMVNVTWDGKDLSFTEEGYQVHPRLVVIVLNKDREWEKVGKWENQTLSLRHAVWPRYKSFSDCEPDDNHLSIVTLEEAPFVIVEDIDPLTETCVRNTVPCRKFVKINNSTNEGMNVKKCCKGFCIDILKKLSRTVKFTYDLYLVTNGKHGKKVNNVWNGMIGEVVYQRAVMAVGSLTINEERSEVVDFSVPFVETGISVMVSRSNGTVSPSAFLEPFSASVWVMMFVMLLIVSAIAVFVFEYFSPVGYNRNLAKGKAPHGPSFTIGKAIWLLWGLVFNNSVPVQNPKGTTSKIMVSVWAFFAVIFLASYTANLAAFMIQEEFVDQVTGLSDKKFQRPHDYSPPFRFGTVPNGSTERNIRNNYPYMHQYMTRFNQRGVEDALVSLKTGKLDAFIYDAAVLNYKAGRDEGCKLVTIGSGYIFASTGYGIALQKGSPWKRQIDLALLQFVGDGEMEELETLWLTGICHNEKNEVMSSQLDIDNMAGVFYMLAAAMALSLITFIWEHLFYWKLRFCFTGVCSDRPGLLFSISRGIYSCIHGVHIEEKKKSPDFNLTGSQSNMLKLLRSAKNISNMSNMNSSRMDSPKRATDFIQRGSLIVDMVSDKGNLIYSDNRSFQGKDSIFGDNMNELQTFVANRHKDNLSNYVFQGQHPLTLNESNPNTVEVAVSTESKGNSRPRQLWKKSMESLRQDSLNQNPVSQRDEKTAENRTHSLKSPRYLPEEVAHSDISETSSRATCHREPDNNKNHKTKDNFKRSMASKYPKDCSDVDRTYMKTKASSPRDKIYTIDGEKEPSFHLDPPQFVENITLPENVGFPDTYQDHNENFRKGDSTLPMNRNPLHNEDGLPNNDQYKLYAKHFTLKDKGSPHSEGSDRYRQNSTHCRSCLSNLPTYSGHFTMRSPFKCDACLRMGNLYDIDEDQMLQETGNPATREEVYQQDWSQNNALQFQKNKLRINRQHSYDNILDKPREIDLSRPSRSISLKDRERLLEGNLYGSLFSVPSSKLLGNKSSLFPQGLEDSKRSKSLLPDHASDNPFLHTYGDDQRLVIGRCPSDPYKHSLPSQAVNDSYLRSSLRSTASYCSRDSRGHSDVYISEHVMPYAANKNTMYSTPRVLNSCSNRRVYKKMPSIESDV
UniProt P08922, whole entry, looked up: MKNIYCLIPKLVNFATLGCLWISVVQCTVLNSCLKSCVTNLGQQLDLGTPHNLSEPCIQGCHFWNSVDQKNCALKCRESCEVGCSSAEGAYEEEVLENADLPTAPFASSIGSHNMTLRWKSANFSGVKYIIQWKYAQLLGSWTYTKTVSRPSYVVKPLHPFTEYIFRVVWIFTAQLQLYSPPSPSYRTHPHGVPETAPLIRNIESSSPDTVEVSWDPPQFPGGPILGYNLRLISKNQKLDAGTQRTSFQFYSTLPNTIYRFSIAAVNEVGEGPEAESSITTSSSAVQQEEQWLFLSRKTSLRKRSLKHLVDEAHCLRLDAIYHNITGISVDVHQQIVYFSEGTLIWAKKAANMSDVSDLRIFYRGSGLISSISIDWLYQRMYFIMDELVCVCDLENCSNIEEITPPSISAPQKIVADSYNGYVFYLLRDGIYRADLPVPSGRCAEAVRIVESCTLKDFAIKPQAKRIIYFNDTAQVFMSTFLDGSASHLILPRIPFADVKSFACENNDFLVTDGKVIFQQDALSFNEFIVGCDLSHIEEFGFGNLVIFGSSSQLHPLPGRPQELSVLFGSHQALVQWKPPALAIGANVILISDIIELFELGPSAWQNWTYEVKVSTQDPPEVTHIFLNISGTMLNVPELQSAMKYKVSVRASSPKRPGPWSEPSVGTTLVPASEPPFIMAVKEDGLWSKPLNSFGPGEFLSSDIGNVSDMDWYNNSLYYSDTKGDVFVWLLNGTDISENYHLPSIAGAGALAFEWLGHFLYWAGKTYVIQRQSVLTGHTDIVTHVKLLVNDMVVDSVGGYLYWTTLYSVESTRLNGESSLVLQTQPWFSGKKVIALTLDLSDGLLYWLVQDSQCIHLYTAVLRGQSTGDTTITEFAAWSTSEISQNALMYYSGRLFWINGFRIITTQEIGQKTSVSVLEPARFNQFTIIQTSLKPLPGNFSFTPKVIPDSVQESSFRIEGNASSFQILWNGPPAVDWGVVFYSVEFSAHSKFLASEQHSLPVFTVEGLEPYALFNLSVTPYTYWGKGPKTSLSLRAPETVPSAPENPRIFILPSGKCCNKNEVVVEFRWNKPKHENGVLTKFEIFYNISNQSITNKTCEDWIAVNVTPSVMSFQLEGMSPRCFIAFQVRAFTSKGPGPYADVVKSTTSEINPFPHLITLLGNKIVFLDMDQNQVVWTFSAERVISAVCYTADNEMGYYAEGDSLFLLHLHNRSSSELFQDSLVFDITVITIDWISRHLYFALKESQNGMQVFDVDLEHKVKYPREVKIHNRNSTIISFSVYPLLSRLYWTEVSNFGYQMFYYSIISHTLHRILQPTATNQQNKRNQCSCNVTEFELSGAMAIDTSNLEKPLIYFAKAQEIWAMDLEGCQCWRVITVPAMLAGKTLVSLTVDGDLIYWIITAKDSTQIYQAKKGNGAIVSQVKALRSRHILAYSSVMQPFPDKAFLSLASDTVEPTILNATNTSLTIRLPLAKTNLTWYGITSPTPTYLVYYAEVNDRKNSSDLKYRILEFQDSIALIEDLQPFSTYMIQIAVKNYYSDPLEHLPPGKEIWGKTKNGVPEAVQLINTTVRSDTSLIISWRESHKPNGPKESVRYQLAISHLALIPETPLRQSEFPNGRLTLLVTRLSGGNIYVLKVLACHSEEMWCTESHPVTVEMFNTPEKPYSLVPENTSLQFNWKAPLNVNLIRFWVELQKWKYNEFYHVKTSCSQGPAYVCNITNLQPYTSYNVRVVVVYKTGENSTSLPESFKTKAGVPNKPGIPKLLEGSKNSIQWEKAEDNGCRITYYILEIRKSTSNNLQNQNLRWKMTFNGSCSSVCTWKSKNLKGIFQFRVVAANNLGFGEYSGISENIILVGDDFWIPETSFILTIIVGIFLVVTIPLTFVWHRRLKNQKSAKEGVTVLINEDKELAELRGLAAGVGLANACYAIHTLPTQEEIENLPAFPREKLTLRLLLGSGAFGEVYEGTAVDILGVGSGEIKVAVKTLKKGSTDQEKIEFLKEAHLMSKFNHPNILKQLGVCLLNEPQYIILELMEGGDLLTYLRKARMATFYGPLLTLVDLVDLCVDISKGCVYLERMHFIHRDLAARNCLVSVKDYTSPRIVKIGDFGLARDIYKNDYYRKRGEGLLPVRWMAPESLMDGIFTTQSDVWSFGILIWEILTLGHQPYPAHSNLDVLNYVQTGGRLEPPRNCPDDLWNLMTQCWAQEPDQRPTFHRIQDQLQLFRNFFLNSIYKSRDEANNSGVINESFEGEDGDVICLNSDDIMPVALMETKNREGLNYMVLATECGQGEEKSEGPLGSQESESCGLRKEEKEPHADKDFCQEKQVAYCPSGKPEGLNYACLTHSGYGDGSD
UniProt P41148, 22-804 limits assumed: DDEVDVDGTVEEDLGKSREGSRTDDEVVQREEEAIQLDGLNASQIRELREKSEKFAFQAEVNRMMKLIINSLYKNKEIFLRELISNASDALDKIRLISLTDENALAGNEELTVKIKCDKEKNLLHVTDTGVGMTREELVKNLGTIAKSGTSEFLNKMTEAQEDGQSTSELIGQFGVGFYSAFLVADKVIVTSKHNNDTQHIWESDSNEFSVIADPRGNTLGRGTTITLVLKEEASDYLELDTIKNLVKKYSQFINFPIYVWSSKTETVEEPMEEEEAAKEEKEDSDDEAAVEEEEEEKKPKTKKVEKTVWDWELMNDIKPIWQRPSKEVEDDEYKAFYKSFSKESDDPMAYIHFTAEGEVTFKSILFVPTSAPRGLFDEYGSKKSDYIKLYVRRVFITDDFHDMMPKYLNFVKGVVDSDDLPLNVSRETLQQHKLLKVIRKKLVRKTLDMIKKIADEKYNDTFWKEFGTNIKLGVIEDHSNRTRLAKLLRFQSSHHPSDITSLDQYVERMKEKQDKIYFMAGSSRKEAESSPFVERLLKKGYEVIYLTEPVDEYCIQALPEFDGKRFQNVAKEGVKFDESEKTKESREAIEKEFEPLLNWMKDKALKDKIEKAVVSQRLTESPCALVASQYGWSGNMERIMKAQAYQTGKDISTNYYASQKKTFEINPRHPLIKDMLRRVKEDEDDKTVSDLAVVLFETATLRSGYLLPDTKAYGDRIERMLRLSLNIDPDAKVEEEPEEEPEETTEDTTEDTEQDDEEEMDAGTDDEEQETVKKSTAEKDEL

CCN1CCN(Cc2ccc(NC(=O)c3ccc(C)c(/C=C/c4cnc5[nH]ccc5c4OC)c3)cc2C(F)(F)F)CC1  log2 fold change (PRKCG (Homo sapiens, UniProt P05129); kinase activity, inhibitor, cell-based kinome screen; 5 µM; baseline: vehicle): 0.462
O=c1oc(-c2ccccn2)ns1  kobs/[I] (PSMB6; inactivation; human PA28-activated proteasome): 0.72 M⁻¹ s⁻¹
CCN(CC)C(=O)Oc1ccc(C(=O)Nc2cccc3cc[nH]c23)cc1  current response (Glutamate receptor ionotropic, NMDA 2D (Rattus norvegicus, UniProt Q62645, M586A); inhibitor, two-electrode voltage clamp; Xenopus oocytes; 10 µM; baseline: untreated): 98.4 ± 2.5%
CN(C(=O)Cc1ccc(Cl)c(Cl)c1)[C@H](CN1CCCC1)c1ccccc1  bias factor (OPRK1; agonist; human receptor; baseline: larger over smaller RAi, vs dynorphin A): 5.7
COc1ccc2c(c1)c(CC(=O)O[C@@H](C(=O)O[C@H]1C[C@@]3(O)[C@@H](OC(=O)c4ccccc4)[C@@H]4[C@]5(OC(C)=O)CO[C@@H]5C[C@H](O)[C@@]4(C)C(=O)[C@H](OC(C)=O)C(=C1C)C3(C)C)[C@@H](NC(=O)c1ccccc1)c1ccccc1)c(C)n2C(=O)c1ccc(Cl)cc1  inhibition (PTGS1 (Ovis aries, UniProt P05979); enzyme activity, inhibitor; purified enzyme; concentration not given): no inhibition
CC[C@@](O)(c1ccccc1)[C@H]1C[C@@]23C=C[C@]1(OC)[C@@H]1Oc4c(O)ccc5c4[C@@]12CCN(CC1CC1)[C@@H]3C5  EC50 (OPRK1; G-protein activation, agonist): 56.6 ± 11 nM
Cn1c(COc2ccc3nc4ccc(=O)cc-4oc3c2)cnc1[N+](=O)[O-]  MIC90 (Mycobacterium tuberculosis; mc2 6206 bedaquiline-resistant MmpL5 regulator mutant; 7 days): > 256 µM
O=c1oc(-c2cccc(C(F)(F)F)c2)ns1  kobs/[I] (PSMB6; inactivation; human PA28-activated proteasome): 0.15 M⁻¹ s⁻¹
O=C(NOCC1CC1)c1cc(Br)c(F)c(F)c1Nc1ccc(I)cc1Cl  IC50 (ACHE; enzyme activity, inhibitor): inactive
Cc1cccc(-c2nsc(=O)o2)c1  kobs/[I] (PSMB5 (Homo sapiens, UniProt P28074); inactivation; human PA28-activated proteasome): 11.3 M⁻¹ s⁻¹
CC1(C)S[C@@H]2CS[C@@H](CS)N2[C@H]1C(=O)O  k2 (E*I formation) (VIM-2 (Escherichia coli, UniProt Q5U7L7); slow-binding inhibitor; Pseudomonas aeruginosa; together with: nitrocefin): 9e-05 ± 0.004 s⁻¹
Cc1ccc(S(=O)(=O)N(C)CC(=O)N(Cc2ccc(C3CCCCC3)cc2)c2ccc(C(=O)O)c(O)c2)cc1  EGFR co-immunoprecipitated (STAT3 (Homo sapiens, UniProt P40763); co-immunoprecipitation; PANC-1; 30, 50, 100 µM, 3 h): decreased
CSc1nc(Cl)cc(Sc2nnc(-c3cc(C(F)(F)F)cc(C(F)(F)F)c3)[nH]2)n1  MIC (Escherichia coli; MC4100; 42 °C, together with: PMBN 25 µg/mL): 2 µg/mL (≈ 4.24 µM)
CC1=C(c2ccc(Cl)cc2)S(=O)(=O)N=C1N1CCC(N2CCCCC2)CC1  inhibition (aacA-aphD (Staphylococcus aureus, UniProt P0A0C1); acetyltransferase activity, inhibitor; concentration not given): no inhibition
O=C(N/N=C/c1cc([N+](=O)[O-])ccc1O)c1ccc(O)cc1O  maximum inhibition (PHGDH (Homo sapiens, UniProt O43175); enzyme activity, inhibitor, PSAT1-coupled): 67%
Cc1ccc(S(=O)(=O)Nc2ccccc2N2CCCCC2)s1  efficacy (Cholinesterase (BCHE, Homo sapiens, UniProt P06276); enzyme activity): -52 ± 7.8%
O=C(c1ncco1)C1CCc2ccccc2C1 (stereo not drawn)  enantiomer potency ratio (Faah (Rattus norvegicus, UniProt P97612); enzyme activity, inhibitor, Dixon plot; pH 9.0, room temperature, together with: 14C-oleamide; baseline: (S)- over (R)-enantiomer): ~2 fold
COc1ccc(OC[C@H]2c3cccn3CC(=O)N2Cc2cccc(F)c2)cc1  charge transfer (Glutamate receptor ionotropic, NMDA 2A, with GluN1 (Grin2a, Rattus norvegicus, UniProt Q00959); ion current, whole-cell patch clamp; HEK293T cells, transfected; 10 µM, together with: 1 mM glutamate for 10 ms plus 100 µM glycine): -4.8 ± 2.7 nA·ms
Cc1ccc(-c2nsc(=O)o2)s1  kobs/[I] (PSMB7 (Homo sapiens, UniProt Q99436); inactivation; human PA28-activated proteasome): 0.11 M⁻¹ s⁻¹
CCCCCCC1c2ccc(O)cc2Oc2cc(O)ccc21  MIC (Klebsiella spp.): > 373 µg/mL
CCN(CC)c1ccc2c(O)c(C=Nc3ccc(CC(=O)NNc4c5c(nc6ccccc46)CCCC5)cc3)c(=O)oc2c1  efficacy (ACHE; enzyme activity): -89.6 ± 0.63%
CCCN1CCN(c2ccc3c(c2)C2CC3CCN2C(=O)OCc2ccccc2)CC1 (stereo not drawn)  Ki (SLC6A4 (Homo sapiens, UniProt P31645); binding, radioligand binding): 8630 nM
CC[C@](O)([C@H]1C[C@@]23C=C[C@]1(OC)[C@@H]1Oc4c(O)ccc5c4[C@@]12CCN(CC1CC1)[C@@H]3C5)C(C)(C)C  Ki (OPRD1 (Homo sapiens, UniProt P41143); binding, radioligand displacement; CHO; together with: [3H]DPDPE): 1.2 ± 0.16 nM
CC#C/C(=N\OC[C@H]1COCCN1)c1ccc2ncnc(Nc3ccc(OCc4cccc(F)c4)c(Cl)c3)c2c1  inhibition (ROS1 (Homo sapiens, UniProt P08922); kinase activity; 10 µM): -1%
COC(=O)c1c(O)cc(O)c(Cl)c1CCc1cc(N)ccc1Cc1ccccc1  selectivity ratio (Endoplasmin (HSP90B1, Canis lupus familiaris, UniProt P41148); fluorescence polarization; together with: FITC-geldanamycin tracer; baseline: Grp94 over Hsp90α): 4 fold
C[C@H](Cc1ccc(O)c(O)c1)[C@@H](C)Cc1ccc(O)c(O)c1  solubility (PBS; 24 h, room temperature): 50 µg/mL (≈ 165 µM)
CN(C(=O)Cc1cccc2occc12)[C@H]1CC[C@@]2(CCCO2)C[C@@H]1N1CCCC1  Emax (OPRK1; receptor internalization, agonist, on-cell western; human receptor; baseline: control): 62.8 ± 2.6%
CCCCCCCCCCC/C=C/c1ccc2cc(CP(=O)(O)O)ccc2c1  remaining activity (Autotaxin (ENPP2, Homo sapiens, UniProt Q13822); inhibitor; 10 µM, 2 h, 2 nM autotaxin, together with: 1 µM FS-3 substrate; baseline: untreated): 17.3%
CC(=O)O[C@H]1C(=O)[C@]2(C)[C@@H](OC(=O)[C@H](C)NC(=O)c3ccc4c(c3)C(=O)OC43c4cc(F)c(O)cc4Oc4cc(O)c(F)cc43)C[C@H]3OC[C@@]3(OC(C)=O)[C@H]2[C@H](OC(=O)c2ccccc2)[C@]2(O)C[C@H](OC(=O)[C@H](O)[C@@H](NC(=O)c3ccccc3)c3ccccc3)C(C)=C1C2(C)C  change in Kd (Abcb1a (Mus musculus, UniProt P21447); concentration not given, nucleotide-bound or vanadate-trapped; baseline: nucleotide-free state): no effect
O=c1ccc2nc3ccc(O)cc3oc-2c1  MIC90 (Mycobacterium tuberculosis; mc2 6206 clofazimine-resistant fbiC mutant; 7 days): > 256 µM

Some of these lines once more:
Cc1ccc(S(=O)(=O)N(C)CC(=O)N(Cc2ccc(C3CCCCC3)cc2)c2ccc(C(=O)O)c(O)c2)cc1  EGFR co-immunoprecipitated (STAT3 (Homo sapiens, UniProt P40763); co-immunoprecipitation; PANC-1; 30, 50, 100 µM, 3 h): decreased
CC1(C)S[C@@H]2CS[C@@H](CS)N2[C@H]1C(=O)O  k2 (E*I formation) (VIM-2 (Escherichia coli, UniProt Q5U7L7); slow-binding inhibitor; Pseudomonas aeruginosa; together with: nitrocefin): 9e-05 ± 0.004 s⁻¹
